Measurements pooled from the literature.
A part holds a random share of what one study measured.

Set 1
Target: RING finger protein unkempt homolog, zinc fingers 1-6, SBP tag (UNK, Homo sapiens, UniProt Q9C0B0, residues 30-357)
Chain of UniProt Q9C0B0 (30-357, looked up): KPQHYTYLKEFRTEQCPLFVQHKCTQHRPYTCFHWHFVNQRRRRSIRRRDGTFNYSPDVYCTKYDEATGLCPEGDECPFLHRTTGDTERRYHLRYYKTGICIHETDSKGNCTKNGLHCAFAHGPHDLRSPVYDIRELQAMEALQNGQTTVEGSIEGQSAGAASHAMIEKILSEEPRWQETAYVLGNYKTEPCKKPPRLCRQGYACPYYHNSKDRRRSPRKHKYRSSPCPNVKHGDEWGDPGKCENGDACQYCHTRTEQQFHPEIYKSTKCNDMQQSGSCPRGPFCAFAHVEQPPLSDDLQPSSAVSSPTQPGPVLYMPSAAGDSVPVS
Technique: RNA Bind-n-Seq
Form: RNA
Medium: in vitro
Tested at: 100 nM
Setting: RNA with constant flanks, vertebrate orthologous sites, ends assumed
Relative to: input RNA pool
Reading: higher = stronger binding
Strand | bound/input enrichment [ratio]
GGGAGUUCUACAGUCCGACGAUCGCCAAACAUUGCUCCUCUAACUCCCCUCAGUCCGUUGUGUUCUAGUCAGUCUGUUGUGUGUAUAGGCUACUACACAUGCACAUGUCCGUCUGUCUCGCGGAAGGGCUAGACUUGUUUCGUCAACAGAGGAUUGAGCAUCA | 0.614
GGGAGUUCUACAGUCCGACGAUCAGCAGCUCAAGGAUUCAGAACUGGUUUUGCAAAUGUGCCAGGCAGAUAUGGAACAAACGCUCGUGGUCAGCCCCGACCAUAAUAAACACCAUUAUUUAUUAUACUUAAGGGUAUUGAUUACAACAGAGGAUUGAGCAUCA | 0.169
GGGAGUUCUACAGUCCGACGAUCUCCAGUCUUAUACUUAUGGUUGGCCUCAAGUCUAUUGCAUUUAUGACAAUGUAUUAUAUCUAGUUAAUUUGAGUUUAAUAUUUUUUAUUAGCCUGUAAAUAAAGAUGGCAUAUUCUACAUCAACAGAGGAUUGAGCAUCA | 0.164
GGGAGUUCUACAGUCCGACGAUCAAGAAAUGCUGGCUGCAAACCCUCAGGAUCGUCCAGAUGCUUUUGAACUAGAACUCCGAUUAGUACAAAUUGCGUUUAAAGACAGCAGCUGGGAAACGUGACACAUAUGUUGUUUGCCGACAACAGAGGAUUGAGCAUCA | 1.51
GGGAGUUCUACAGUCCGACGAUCAUUUAAAAUGUAGUUAGUUAUAUUUAAUGACCUCAUUCCUAAGUUUCUUUUUCAUUAAUGUAGCUUUCAUUUCUGUUGUUGUUGUUUUAAUAAUAUGAUGAAAUAGAAAGUCUGUGCCAGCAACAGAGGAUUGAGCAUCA | 0.438
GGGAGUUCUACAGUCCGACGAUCGCACAUGCCGCUAUCACCAAAAGCAAAUUGCCAUUUUUCAAAUUUCAUCCAGAGCCGUUUUAGUGUUUCCUAUUCCCUGCCCUUCCCAUUACUUUCAAUGAUGAACGUUCUCCUCUGACACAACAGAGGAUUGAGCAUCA | 2.7
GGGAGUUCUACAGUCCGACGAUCCCUACAAUAAUGAAAACCUACAGGAAUUUUUUUAUUUUUCAUUUUCCCCUUAGGUAUACUUAGUCUUUUUUUUCCCCCAGGCAGAUCAUUCUGAGUGUGCGAGUGUGUGUGCACAUGUUACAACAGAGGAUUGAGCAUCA | 3.53
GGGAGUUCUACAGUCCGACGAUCAAUAGUUUUAAGCUUGUUUGCACAGUUCUUUCCCUCCAUUGGAGAUGGAAUUCAUUGCCUUAGGUCUUUUUAAUAGUGUAUUGUUAUUGUUGGGCUGGCUCUAUGCUUGAAAACCAGUUUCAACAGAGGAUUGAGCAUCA | 1.93
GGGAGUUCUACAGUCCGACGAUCAUUAAAUAUGUAUCAGAUGCUGGAUGUAACAUUGAACCAUCAUUUAUAAUAGAUGUUAAUUUGUUAUACUUAAGCUACAAAUAGGUUUCCUUAAACCAGAGAUACACUGCCCUUGUCUGACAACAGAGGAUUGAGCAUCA | 0.202
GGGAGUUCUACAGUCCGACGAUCAUCGUGUUUGCUUUUUACCGCCUCAAUGAGGUCAAGUCUCCCUUGGCAUUUGGUUGGUACUAGAGCCAGUCAUACCUAAUGUGUCUUUCCACUUUUCAUUUCUUUCACUCAUAGUCAUCCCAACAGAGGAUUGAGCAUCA | 0.873
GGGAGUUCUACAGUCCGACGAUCAAGAUGGUUUCAAUCUCGUCUCUCUCCCUGUGGGGAGUGGGGGAAGCUGUUCCAAUCCAUGGGUUUUUUUUUAAAUUUGUUUGUUUUUUUAUUUUAAAAAAAUACUGUAUUUAUUAUGACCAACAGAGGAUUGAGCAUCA | 0.681

Set 2
Target: Interferon regulatory factor 5, full length, phosphomimetic (IRF5, Homo sapiens, UniProt Q13568-2, residues 1-514, K96S/S451D/S453D/S456D/S462D)
Technique: protein-binding microarray
Form: double-stranded DNA, one strand shown
Medium: in vitro
Tested at: 250 nM
Setting: 60-bp whole probe
With: salmon DNA 0.4 mg/ml
Relative to: random background probes
Reading: higher = stronger binding
All sequences stand within: GCCTAGCAC … GTCTTGATTCGCTTGACGCTGCTG
Strand | log fluorescence
GACGATTTAGGGACTGGAGACGTGCTA | -0.289 z-score
TCAGATATCTTTTTCCTACTGTGCTAG | 0.702 z-score
TCAAATATTTACCTCTCACTGTGCTAG | 0.432 z-score
GACGATTTCAGACTGGTGACGTGCTAG | 0.243 z-score
TTAGGACTGGGTCTCCGTTAGTGCTAG | -0.481 z-score
TTCTTTATGCACTCTCTACATGTGCTA | 0.888 z-score
GCGATTTGAGGAGCTCGCTCGTGCTAG | -0.782 z-score
TTAGGTTTCGGTCTCGGTGAGTGCTAG | 10.1 z-score
TCTCTGCTACCCTTTGAAAGTGTGCTA | 0.52 z-score
TCAGGTCACTCTCTGGGACTGTGCTAG | -0.645 z-score
GACGAACTTAGTATCGAGACGTGCTAG | 3.04 z-score
TTCGGACTGGGACTGGGTTAGTGCTAG | -0.208 z-score
TTAGGTATCGGCACTGGGTTAGTGCTA | 1.78 z-score
TTAGGTTTCCTTCGCCTTTAGTGCTAG | 0.64 z-score
TTAGGTTTCCTTCTCCTTCAGTGCTAG | 1.05 z-score
GACGGACTACTTCTCCTGACGTGCTAG | -0.129 z-score
TCAATTTTTTTTCACTAACTGTGCTAG | 1.8 z-score
TCATGCCTCATCTTGCAGACTGTGCTA | -0.172 z-score
TCTGTTTTTGCTTTCTTTTTGTGCTAG | 2.87 z-score
GAGGATTCCAGTTTCGAGACGTGCTAG | 5.41 z-score
TCATCTTTCTCTGCTACCACTGTGCTA | 1.56 z-score
GAATGTCTTCCCCTCTCTTTGTGCTAG | 0.155 z-score
GACGGTCTCCTTCTCCTGATGTGCTAG | 0.0157 z-score
TGAGAACTGAGTATCGATTAGTGCTAG | 6.5 z-score
TTAGATCTCAGACTGGATTAGTGCTAG | 0.0101 z-score

Set 3
Target: Histone acetyltransferase KAT6A, both winged helices, GST fusion (KAT6A, Homo sapiens, UniProt Q92794, residues 1-181)
Technique: protein binding microarray
Form: double-stranded DNA, one strand shown
Medium: in vitro
Tested at: not given
Setting: 8-mer, flanks averaged, mean of 2 arrays, mostly near background
Relative to: not given
Reading: higher = stronger binding
Target sequence (chain): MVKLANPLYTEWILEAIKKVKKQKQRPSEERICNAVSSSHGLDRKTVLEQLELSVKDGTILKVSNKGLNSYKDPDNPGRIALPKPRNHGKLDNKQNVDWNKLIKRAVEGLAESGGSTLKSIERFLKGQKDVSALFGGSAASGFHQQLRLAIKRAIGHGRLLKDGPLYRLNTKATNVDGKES
Strand | E-score
TCGAATCA | -0.17
GGAAGTCC | -0.0128
AAGAACCT | -0.175
CCCTACGG | 0.221
CAATCACC | -0.0567
TATCCTAA | -0.142
GGGAAGTA | -0.00968
TACACTGA | -0.117
AAGAACAC | 0.0234
AGCAAAGC | -0.0804
TATTAAGA | -0.0152
GTAGCTTA | -0.0765
ACTCGCCG | 0.266
CTCAGCTC | -0.151
CATCCTCA | -0.09
AGTGGACC | -0.0471
ACTCTTCT | -0.178
GCACTCGA | -0.119
GCATTTAC | -0.0221
GATGTTGC | 0.0523

Set 4
Target: RNA binding protein fox-1 homolog 2, RRM domain, GST-SBP tag (RBFOX2, Homo sapiens, UniProt O43251-10, residues 100-194)
Technique: RNA Bind-n-Seq
Form: RNA
Medium: in vitro
Tested at: 365 nM
Setting: natural RNA segment, single round, ends assumed
Relative to: no-protein control
Reading: higher = stronger binding
Target sequence (chain): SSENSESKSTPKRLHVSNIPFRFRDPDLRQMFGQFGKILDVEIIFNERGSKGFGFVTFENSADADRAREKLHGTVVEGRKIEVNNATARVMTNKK
Strand | RBNS enrichment (R)
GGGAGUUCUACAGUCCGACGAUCGGAAAUAGCAUACUUUUUCAAAAAUAAAUAAAUAAAAAUGGCAUCUCUGAAAAUCCCAUUCUUUGAUUUUCCUGGUAUUGUAAUUGGUUAUUGACAAUUGUCAUCAUGAAUGGAAUUCUCGGGUGCCAA | 1.15
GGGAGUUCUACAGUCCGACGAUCAGCAAGAAACAGUUUCUUGCUUGGAAGCCAGGUACAGGAGAGGCAGCAUGCUUGGGCUGACCCAGCAUCUCCCAGCAAGACCUCAUCUGUGGAGCUGCCACAGAGAAGUUUGGAAUUCUCGGGUGCCAA | 2.17
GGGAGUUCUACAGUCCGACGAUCUAGCUUCUCCAAAGGCUCCCUGUGUUCUCACCGUGAUCAAGUUGAGGGGCUUCCGGCUCCCUUCUACAGCCUCAGAAACCAGACUCGUUCUUCUGGGAACCCUGCCCACUUGGAAUUCUCGGGUGCCAA | 0.326
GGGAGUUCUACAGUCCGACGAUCCCCAGAAAGAAUACUACCUAAAUGCUGGUUCAUCAGAGAGUAACUGUGAAGAGCAUCUCAGAUAAGGGUUCUUAAAAGGGGGGAUGGGCAGAGUACAGUAGAGGAGGACUUGGAAUUCUCGGGUGCCAA | 0.616
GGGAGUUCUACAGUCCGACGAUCUGAAGAUAUGUGUGUGUGUAUAUUCAACUUUGAUGGCUUCCGGAUCUGUAAGAUUGUAUGCUGUAUAUACCGUUCUAUUGAGAAACAUGUACACAUGUCUGUCUACUGUGUGGAAUUCUCGGGUGCCAA | 5.98
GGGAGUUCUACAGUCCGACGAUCACCUGGUUCCUGCUAACUGCCAGAUUGAAUGUGUGGGCUAGAAUGCCUGCACAUUUAGUUAAACUGGGCUCAGCAUGCUUGUCCUCAAAAUGUCCAUCCUGGUCACAGCAUGGAAUUCUCGGGUGCCAA | 1.74
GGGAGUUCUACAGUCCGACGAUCUUCCCCUCGGAAACUGCUUCUGCUGGAGGAUAUGUGUUGGAAUAAUUACGUCUUGAGUCUGGGAUUAUCCGCAUUGUAUUUAGUGCUUUGUAAUAAAAUAUGUUUUGUAGUGGAAUUCUCGGGUGCCAA | 1.18
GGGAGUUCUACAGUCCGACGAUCCACCAGCCUGUUUCUGAGACCACAGAAGAAAACCCCAGGGAUGGAUUUAUGAACAGCUGUGUCUGCUACAUACACGUGCCCCUGUCUGAAGGCCAAGUGAUGGCUUCUGUUGGAAUUCUCGGGUGCCAA | 0.356
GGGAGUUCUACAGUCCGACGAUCCCAAGGUAUUAAGAAUUUGCAAGUAUUUUAGAUUUUCGAAAAUGAAUGAGAGAACUGUGUAAACACCCCGCUGUUCCUUCAGUGCAACACAAUAAAACUCUGAAAUGAAGUGGAAUUCUCGGGUGCCAA | 0.859

Excerpt of the above (set 4):
Strand | RBNS enrichment (R)
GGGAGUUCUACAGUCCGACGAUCGGAAAUAGCAUACUUUUUCAAAAAUAAAUAAAUAAAAAUGGCAUCUCUGAAAAUCCCAUUCUUUGAUUUUCCUGGUAUUGUAAUUGGUUAUUGACAAUUGUCAUCAUGAAUGGAAUUCUCGGGUGCCAA | 1.15
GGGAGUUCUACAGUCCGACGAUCAGCAAGAAACAGUUUCUUGCUUGGAAGCCAGGUACAGGAGAGGCAGCAUGCUUGGGCUGACCCAGCAUCUCCCAGCAAGACCUCAUCUGUGGAGCUGCCACAGAGAAGUUUGGAAUUCUCGGGUGCCAA | 2.17
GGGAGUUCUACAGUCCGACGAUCUAGCUUCUCCAAAGGCUCCCUGUGUUCUCACCGUGAUCAAGUUGAGGGGCUUCCGGCUCCCUUCUACAGCCUCAGAAACCAGACUCGUUCUUCUGGGAACCCUGCCCACUUGGAAUUCUCGGGUGCCAA | 0.326
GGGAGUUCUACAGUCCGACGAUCCCCAGAAAGAAUACUACCUAAAUGCUGGUUCAUCAGAGAGUAACUGUGAAGAGCAUCUCAGAUAAGGGUUCUUAAAAGGGGGGAUGGGCAGAGUACAGUAGAGGAGGACUUGGAAUUCUCGGGUGCCAA | 0.616
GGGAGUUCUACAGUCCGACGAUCUGAAGAUAUGUGUGUGUGUAUAUUCAACUUUGAUGGCUUCCGGAUCUGUAAGAUUGUAUGCUGUAUAUACCGUUCUAUUGAGAAACAUGUACACAUGUCUGUCUACUGUGUGGAAUUCUCGGGUGCCAA | 5.98
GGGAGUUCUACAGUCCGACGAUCACCUGGUUCCUGCUAACUGCCAGAUUGAAUGUGUGGGCUAGAAUGCCUGCACAUUUAGUUAAACUGGGCUCAGCAUGCUUGUCCUCAAAAUGUCCAUCCUGGUCACAGCAUGGAAUUCUCGGGUGCCAA | 1.74
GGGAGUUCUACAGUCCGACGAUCUUCCCCUCGGAAACUGCUUCUGCUGGAGGAUAUGUGUUGGAAUAAUUACGUCUUGAGUCUGGGAUUAUCCGCAUUGUAUUUAGUGCUUUGUAAUAAAAUAUGUUUUGUAGUGGAAUUCUCGGGUGCCAA | 1.18
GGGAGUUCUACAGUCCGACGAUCCACCAGCCUGUUUCUGAGACCACAGAAGAAAACCCCAGGGAUGGAUUUAUGAACAGCUGUGUCUGCUACAUACACGUGCCCCUGUCUGAAGGCCAAGUGAUGGCUUCUGUUGGAAUUCUCGGGUGCCAA | 0.356
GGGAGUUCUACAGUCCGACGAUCCCAAGGUAUUAAGAAUUUGCAAGUAUUUUAGAUUUUCGAAAAUGAAUGAGAGAACUGUGUAAACACCCCGCUGUUCCUUCAGUGCAACACAAUAAAACUCUGAAAUGAAGUGGAAUUCUCGGGUGCCAA | 0.859
